{"data": "Results gathered from unrelated publications", "note": "A part holds a random share of what one study measured. Values joined by “and” are separate records of one study, mostly repeats; a detail may differ. Substitutions count along the parent as printed.", "UniProt P62344, sequence (whole entry, looked up)": "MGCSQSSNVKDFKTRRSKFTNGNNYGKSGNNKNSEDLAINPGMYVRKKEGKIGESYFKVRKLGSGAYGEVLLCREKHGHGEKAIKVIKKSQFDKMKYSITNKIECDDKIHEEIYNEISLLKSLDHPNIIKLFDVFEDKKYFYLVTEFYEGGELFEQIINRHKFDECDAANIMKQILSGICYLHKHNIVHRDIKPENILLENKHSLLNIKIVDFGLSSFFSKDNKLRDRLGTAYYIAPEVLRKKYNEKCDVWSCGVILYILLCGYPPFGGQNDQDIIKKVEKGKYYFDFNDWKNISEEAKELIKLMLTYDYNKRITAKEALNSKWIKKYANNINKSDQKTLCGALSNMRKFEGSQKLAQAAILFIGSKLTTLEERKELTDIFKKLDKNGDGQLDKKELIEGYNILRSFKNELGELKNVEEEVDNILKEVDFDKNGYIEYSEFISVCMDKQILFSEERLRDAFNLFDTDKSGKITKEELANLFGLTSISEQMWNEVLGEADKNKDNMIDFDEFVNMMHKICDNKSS"}
{"data": "Series 1", "cell line": "mouse MPNST tumor cells", "technique": "high-content immunofluorescence imaging", "item": "nuclear SOX9", "tested at": "10 µM", "time": "12 h", "setting": "mean of 2 replicates", "reference": "DMSO control", "reading": "higher = more nuclear SOX9"}
{"Compound": "CCCCC1CCC(c2nc(-c3ccncc3)no2)CC1 (stereo not drawn)", "nuclear SOX9 intensity": "100 % of DMSO"}
{"Compound": "CC(C)(N)c1cc(C(=O)N[C@@H]2CCc3ccc(Oc4ccnc5c4CCC(=O)N5)cc3C2)cc(C(F)(F)F)c1", "nuclear SOX9 intensity": "47.2 % of DMSO"}
{"Compound": "CC(C)C[C@H](NC(=O)N1CCCCCC1)C(=O)N[C@H](Cc1cn(C)c2ccccc12)C(=O)N[C@H](Cc1ccccn1)C(=O)O", "nuclear SOX9 intensity": "91.1 % of DMSO"}
{"Compound": "COc1ccc2[nH]c(=O)c(C(c3nnnn3CCc3ccccc3)N3CCN(C4CCCCC4)CC3)cc2c1 (stereo not drawn)", "nuclear SOX9 intensity": "127 % of DMSO"}
{"Compound": "CC(C)(C)c1ccc(NC(=O)N2CCN(c3ncccc3Cl)CC2)cc1", "nuclear SOX9 intensity": "191 % of DMSO"}
{"Compound": "O=C(Nc1ccccc1)OCC(CN1CCCCC1)OC(=O)Nc1ccccc1 (stereo not drawn)", "nuclear SOX9 intensity": "123 % of DMSO"}
{"Compound": "COc1ccc(N2CCN(C(=O)c3cc4c(s3)-c3ccccc3S(=O)(=O)C4)CC2)cc1", "nuclear SOX9 intensity": "108 % of DMSO"}
{"Compound": "Cc1ccc(S(=O)(=O)Nc2ccc3c(c2)c(C(=O)C(F)(F)F)cn3CC(=O)N[C@@H](CC(C)C)C(=O)O)cc1", "nuclear SOX9 intensity": "91.1 % of DMSO"}
{"data": "Series 2", "cell line": "A-375", "tested at": "100 µM", "time": "36 h"}
{"Structure (SMILES)": "Cn1c(=O)cc(N2CCC[C@@H](N)C2)n(Cc2cc(F)ccc2C#N)c1=O", "viability": "118% and 108%"}
{"Structure (SMILES)": "COc1ccc(/C=C/C(=O)Nc2ccccc2C(=O)O)cc1OC", "viability": "60.2%"}
{"Structure (SMILES)": "Nc1ccc2cc3ccc(N)cc3nc2c1", "viability": "7.04%"}
{"Structure (SMILES)": "COc1cc(O)c(C(=O)Nc2nc(C(=O)NCCN(C(C)C)C(C)C)cs2)cc1OC", "viability": "102%"}
{"Structure (SMILES)": "CC1=NN(c2ccc(C)c(C)c2)C(=O)/C1=N\\Nc1cccc(-c2cccc(C(=O)O)c2)c1O", "viability": "40.4%"}
{"Structure (SMILES)": "CN1CC(=O)N2[C@H](c3ccc4c(c3)OCO4)c3[nH]c4ccccc4c3C[C@@H]2C1=O", "viability": "90%"}
{"Structure (SMILES)": "O=C(NC(Cc1cc(=O)[nH]c2ccccc12)C(=O)O)c1ccc(Cl)cc1 (stereo not drawn)", "viability": "111%"}
{"Structure (SMILES)": "COc1cc2ccc(=O)oc2cc1O", "viability": "95.6%"}
{"data": "Mixed results", "P1": "viral docking peptide; PTARRRLLHDLDT; partner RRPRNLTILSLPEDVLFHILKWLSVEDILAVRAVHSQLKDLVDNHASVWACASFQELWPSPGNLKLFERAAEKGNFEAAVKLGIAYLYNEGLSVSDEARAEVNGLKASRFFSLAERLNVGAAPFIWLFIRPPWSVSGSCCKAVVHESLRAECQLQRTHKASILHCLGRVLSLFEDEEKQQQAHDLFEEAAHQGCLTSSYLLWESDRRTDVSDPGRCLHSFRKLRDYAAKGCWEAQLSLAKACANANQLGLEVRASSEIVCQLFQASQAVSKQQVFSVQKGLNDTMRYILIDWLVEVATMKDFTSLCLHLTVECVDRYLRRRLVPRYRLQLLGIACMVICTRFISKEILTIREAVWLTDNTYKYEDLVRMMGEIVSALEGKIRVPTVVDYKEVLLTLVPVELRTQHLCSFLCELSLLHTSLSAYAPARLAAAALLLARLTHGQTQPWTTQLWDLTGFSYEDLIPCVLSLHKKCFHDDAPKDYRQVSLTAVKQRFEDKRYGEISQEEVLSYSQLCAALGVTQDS"}
{"Molecule": "P1 L8F", "target": "CCNF, cyclin fold, Cln2 fusion (human)", "test": "yeast growth competition, sequencing", "test system": "yeast", "conditions": "strong parent motif", "scale": "reference: not given, higher = stronger binding", "measurement": "normalised enrichment score", "value": 8.74}
{"Molecule": "O=C(N1CCS(=O)(=O)CC1)N1C[C@H](c2ccc(OC(F)(F)F)cc2)C[C@H](c2nc(C3CC3)no2)C1", "target": "Calcium-dependent protein kinase 1 (CDPK1, Plasmodium falciparum, UniProt P62344)", "test": "cell-free assay, competition with immobilised ligand", "conditions": "1 µM", "measurement": "remaining binding", "value": "92%"}
{"note": "Repeated from above (mixed results):"}
{"Molecule": "P1 L8F", "target": "CCNF, cyclin fold, Cln2 fusion (human)", "test": "yeast growth competition, sequencing", "test system": "yeast", "conditions": "strong parent motif", "scale": "reference: not given, higher = stronger binding", "measurement": "normalised enrichment score", "value": 8.74}
